Results from different studies.
Values joined by “and” are separate records of one study, mostly repeats; a detail may differ.
INSR: Insulin receptor (INSR, Homo sapiens, UniProt P06213)
UniProt P06213, sequence (whole entry, looked up): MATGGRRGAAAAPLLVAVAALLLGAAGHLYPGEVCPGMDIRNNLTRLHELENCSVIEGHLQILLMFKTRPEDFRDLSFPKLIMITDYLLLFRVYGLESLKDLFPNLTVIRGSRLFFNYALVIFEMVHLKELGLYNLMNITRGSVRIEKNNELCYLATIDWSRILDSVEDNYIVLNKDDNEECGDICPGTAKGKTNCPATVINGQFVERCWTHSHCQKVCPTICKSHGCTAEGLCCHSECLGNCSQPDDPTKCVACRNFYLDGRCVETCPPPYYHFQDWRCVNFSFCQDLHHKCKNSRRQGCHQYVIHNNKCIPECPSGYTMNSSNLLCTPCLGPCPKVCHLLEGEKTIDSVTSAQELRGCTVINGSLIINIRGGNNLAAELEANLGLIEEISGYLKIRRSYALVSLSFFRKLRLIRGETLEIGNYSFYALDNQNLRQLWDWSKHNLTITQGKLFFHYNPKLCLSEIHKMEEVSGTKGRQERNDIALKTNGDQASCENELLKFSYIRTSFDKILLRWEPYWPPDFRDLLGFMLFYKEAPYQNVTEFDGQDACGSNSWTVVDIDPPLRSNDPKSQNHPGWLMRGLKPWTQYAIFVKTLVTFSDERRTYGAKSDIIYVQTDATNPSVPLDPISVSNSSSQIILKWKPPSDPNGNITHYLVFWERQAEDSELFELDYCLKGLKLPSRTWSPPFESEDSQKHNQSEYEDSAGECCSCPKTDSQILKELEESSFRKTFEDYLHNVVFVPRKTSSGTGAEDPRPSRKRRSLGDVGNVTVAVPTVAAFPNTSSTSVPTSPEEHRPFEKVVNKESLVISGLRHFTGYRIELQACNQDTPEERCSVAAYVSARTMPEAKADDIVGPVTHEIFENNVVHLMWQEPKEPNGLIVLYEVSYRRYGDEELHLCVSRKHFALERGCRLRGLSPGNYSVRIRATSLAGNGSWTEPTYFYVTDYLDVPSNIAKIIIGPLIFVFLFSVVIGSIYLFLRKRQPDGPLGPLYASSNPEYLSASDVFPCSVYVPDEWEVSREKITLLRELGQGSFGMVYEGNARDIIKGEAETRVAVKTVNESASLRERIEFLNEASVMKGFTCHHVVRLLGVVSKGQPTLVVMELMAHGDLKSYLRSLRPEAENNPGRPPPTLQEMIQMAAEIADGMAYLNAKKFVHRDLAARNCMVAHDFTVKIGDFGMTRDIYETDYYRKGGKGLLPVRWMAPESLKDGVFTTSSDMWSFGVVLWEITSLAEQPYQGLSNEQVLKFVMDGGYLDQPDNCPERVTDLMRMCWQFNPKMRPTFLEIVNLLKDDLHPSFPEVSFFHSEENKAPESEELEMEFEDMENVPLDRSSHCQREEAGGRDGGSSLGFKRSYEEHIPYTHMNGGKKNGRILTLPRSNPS

COc1c(OCCCN2CCOCC2)ccc2c1N=C(NC(=O)c1cnc(N)nc1)N1CCN=C21  remaining activity (INSR; kinase activity, inhibitor; 1 µM; relative to: untreated control): 81%
CC(=O)N1c2ccc(-c3ccc(CNC(=O)c4cn5cc(-c6cnc(N)nc6)nc(N6CCOCC6)c5n4)cc3)cc2CC[C@@H]1C  remaining binding (INSR; KINOMEscan; 10 µM): 87%
Cc1nc2c(F)cc(-c3nc(Nc4ccc(CNC(=O)CCCCCCC(=O)NO)cc4)ncc3F)cc2n1C(C)C  inhibition (INSR; enzyme activity, inhibitor; 1 µM): 67%
Nc1ncc2c(n1)-c1c([nH]c3ccc(C4=CCOCC4)cc13)CCC2  remaining binding (INSR; binding, competition with immobilised ligand; 1 µM): 92%
Cc1cccc(O[C@H]2CCC[C@@H](C(C)CNCc3ccncc3)C2)c1 (relative stereo)  inhibition (INSR; cell-free assay; 1 µM): 2%
CN1CC[C@@H](COc2cnc(C#N)cc2-c2ccn3nc(NC(=O)C4CC4)cc3c2)C1  inhibition (INSR; enzyme activity, inhibitor; 1 µM): 4%
O=C=[N][Ru-4]123([n]4c5ccc(O)cc5c5c6c(c7cc(F)c[n+]1c7c54)C(=O)NC6=O)[S+]1CC[S+]2CC[S+]3CC1 (stereo not shown)  remaining activity (INSR; enzyme activity; 100 nM, human enzyme, with: 10 µM ATP; relative to: untreated): 104%
COCC12C(=O)NC3C4(C(OC)CC1O)C1CC5(O)C(OC)C(O)C(OC(C)=O)(C1C5OC(=O)c1ccccc1)C3(O)C(OC)C24 (stereo not shown)  remaining activity (INSR; kinase activity, inhibitor, ProQinase kinase profiling; 25 µM; relative to: control): 101% and 106%
C=CC(=O)N1CCCC(n2c(=O)c3ncccc3n(Cc3ccc(Oc4ccccc4)cc3)c2=O)C1 (stereo not shown)  remaining binding (INSR; cell-free assay, competition with immobilised ligand; 1 µM): 100%
Cc1cccc(-c2ccc3nc(NC(=O)C4CCCO4)nn3c2)c1 (stereo not shown)  remaining activity (INSR; enzyme activity, Dundee kinase panel; 10 µM): 80%
C=CC(=O)N1CCc2ccc(-n3c(=O)ccc4cnc5ccc(-c6cnn(C)c6)cc5c43)cc21  remaining binding (INSR; KINOMEscan; 1 µM; relative to: DMSO control): 75%
COc1ccc(NC(=O)Nc2ccc3c(c2)C(=O)N(C(C)CO)CC(C)C(CN(C)Cc2ccc4c(c2)OCO4)O3)cc1 (stereo not shown)  remaining activity (INSR; kinase activity; 0.03 µM; relative to: control): 101%
NC(=O)[C@@H](O)C[C@H]1CCc2sc3ncnc(O[C@H]4CC[C@H](N5CCOCC5)CC4)c3c21  inhibition (INSR; enzyme activity, inhibitor; 10 µM): 10%
C=C1CCCCCCCCCC(CO)C1=O (stereo not shown)  remaining signal (INSR; cell-free assay; 10 µM): 100%
Cc1cccc(-c2ccc3nc(NC(=O)C4CCOCC4)nn3c2)c1  remaining activity (INSR; enzyme activity, Dundee kinase panel; 10 µM): 78%
CCN1CCN(Cc2ccc(C(=O)Nc3ccc(C)c(NCc4cnc5[nH]ccc5c4OC)c3)cc2C(F)(F)F)CC1  remaining binding (INSR; binding, competition with immobilised ligand; 1 µM): 100%
COC(=O)[C@@]1(C)C=C(C(=O)Nc2cccc(C(=O)Nc3ccc(Nc4nccc(-c5cccnc5)n4)c(C)c3)c2)C(=O)CC1  remaining activity (INSR; enzyme activity, inhibitor, radiometric; 1 µM): 101%
CNC1C[S+]2CC[S+]3CC[S+](C1)[Ru-4]321([N]=C=S)[n]2c3ccc(OC)cc3c3c4c(c5cc(F)c[n+]1c5c32)C(=O)NC4=O (stereo not shown)  remaining binding (INSR; KinomeScan; 0.1 µM; relative to: untreated): 99%
CN1CCN(c2ccc(Nc3ncc(Cl)c(Nc4ccccc4P(C)(C)=O)n3)cc2Br)CC1  inhibition (INSR; enzyme activity, inhibitor; 0.1 µM): 87.9%
C=CC(=O)Nc1cccc(-c2cnc3[nH]cc(C(=O)NC(C)(C)C)c3n2)c1  inhibition (INSR; kinase activity; 0.1 µM): 2% and 4%
CN1CCN(Cc2ccc(NC(=O)c3cccc(C#Cc4cnc(N)c5ncccc45)c3)cc2C(F)(F)F)CC1  remaining binding (INSR; cell-free assay, competition with immobilised ligand; 0.5 µM): 84%
O=C(Cc1ccc(OCc2ccccc2)cc1)NC1(C(=O)O)CCN(C(=O)c2ccc(-c3cccc(Cl)c3)cc2)CC1  activity vs control (INSR; enzyme activity, inhibitor; 10 µM): 117%
Cc1ccc(-c2c(/C=C(\C#N)C(=O)NC(C)C)n(CCCO)c3ncnc(N)c23)cc1  remaining binding (INSR; cell-free assay, competition with immobilised ligand; 1 µM): 77%
CNC(=O)C[C@H](Cc1ccc(C#N)cc1)NC(=O)c1cc(-c2ccc(CN[C@H](C)c3ccc(C)cc3)o2)ccc1Cl  activity vs control (Insulin receptor, phosphorylated (INSR, Homo sapiens, UniProt P06213); enzyme activity, inhibitor; 1 µM): 102%
COc1cc(Nc2nccc(-c3cnn4nc(OC)ccc34)n2)cc(C(F)(F)F)c1  remaining binding (INSR; binding, competition with immobilised ligand; 1 µM): 79%
